Assay results of several laboratories.
± gives the spread as reported.

SMILES	assay	system	conditions	scale	measurement	value
O=C(O)[C@H]1O[C@@H](O[C@H](C[C@H]2c3c(F)cccc3-c3cncn32)[C@H]2CC[C@H](O)CC2)[C@H](O)[C@@H](O)[C@@H]1O		human, plasma	oral, 200 mg, 0 to 48 h pooled		AUC(0-48 h)	36.4 µM·h
C[C@@H](O)[C@@H]1NC(=O)[C@H](CCCCN)NC(=O)[C@@H](Cc2ccc(NC(N)=O)cc2)NC(=O)[C@H](Cc2ccc(NC(=O)[C@@H]3CC(=O)NC(=O)N3)cc2)NC(=O)[C@H](NC(=O)[C@H](Cc2ccc(Cl)cc2)NC(=O)CN2CCN(CC(=O)O)CCN(CC(=O)O)CCN(CC(=O)O)CC2)CSSC[C@@H](C(=O)N[C@H](Cc2ccc(O)cc2)C(N)=O)NC1=O		mouse serum	concentration not given, 37 °C		protein-bound activity	< 10%
COCCOCCOCCOCCOCCOCCOCCOCCOCCOCCOCCOCCNC(=O)CCC1(Cc2ccccc2)c2ccccc2-c2ccc(-c3sc(-c4c5c(c(-c6sc(-c7ccc8c(c7)C(CCC(=O)NCCOCCOCCOCCOCCOCCOCCOCCOCCOCCOCCOCCOC)(Cc7ccccc7)c7ccccc7-8)c7c6OCCO7)c6nsnc46)N=S=N5)c4c3OCCO4)cc21 (stereo not shown)		aqueous solution			zeta potential	-24.3 ± 1.9 mV
COc1ccc2cc(-c3ccc(-c4ccc(C)cn4)nc3)oc2c1		aqueous HEPES buffer	pH 7.4, zinc(II) complex		fluorescence lifetime	2.42 ns
CC[C@H](C)[C@H](NC(=O)[C@H](Cc1ccccc1)NC(=O)[C@H](CCCCN)NC(=O)[C@H](CCCNC(=N)N)NC(=O)[C@H](Cc1ccccc1)NC(=O)[C@H](Cc1ccccc1)NC(=O)[C@H](CCCCN)NC(=O)[C@H](CO)NC(=O)[C@H](CC(C)C)NC(=O)[C@H](CCCNC(=N)N)NC(=O)[C@H](CCSC)NC(=O)[C@H](C)N)C(=O)N[C@@H](CC(C)C)C(=O)N[C@@H](CCCCN)C(=O)N[C@@H](CCCNC(=N)N)C(=O)N[C@@H](CCCCN)C(=O)N[C@@H](CCCCN)C(=O)O	circular dichroism	20% TFE in PBS	200 µM, pH 7.4, 25 °C		helicity	14.1%
[123I]c1ccc2nc(-c3ccc(-n4ccnn4)nc3)cn2c1		Alzheimer's disease patients, venous plasma	intravenous, from 180 min		parent fraction	< 5%
COC(=O)c1ccc(CCc2cc3cc4nc(c(OC)c5[nH]c(cc6nc(cc2[nH]3)CC6(C)C)cc5CCCNC(=O)OC(C)(C)C)C(=O)C4(C)C)cc1		DMF	room temperature		integrated Qy/B absorption ratio	0.23
[11CH3]Oc1ccc(C(=O)Nc2c(-c3cccs3)nc3ccccn23)cc1	radio-HPLC	female Landrace × Yorkshire × Duroc pigs, arterial plasma	intravenous, 509 MBq, 5 min		parent compound remaining	50%
CC(=O)N[C@H](C)c1cc(Cl)ccc1Cn1c(=S)[nH]c(=O)c2[nH]ccc21		dog, both sexes, plasma	oral, 100 mg/kg/day	baseline: dog over human 10 mg	exposure ratio	0.3
Cc1cc(O)cc(O)c1C(=O)c1c2c3c(c(O)cc(C)c3oc1=O)C(=O)c1c(O)cc(O)cc1-2		Caco-2 monolayer	50 µM, 3 h, pH 7.4	baseline: AP to BL over BL to AP	efflux ratio	21.1
C[Si]1(C[C@@H](CN)CC(=O)O)CCCC1		male Sprague-Dawley rat, brain	oral, 30 mg/kg, 1 h, single dose		concentration	2600 nM
NC(=O)N/N=C/c1ccccn1	cyclic voltammetry	anhydrous DMF	Cu2+ complex, glassy carbon electrode		peak potential separation	0.135 mV
CC(C)c1cnc(-c2cc(Cl)ccc2F)cc1Nc1ccncc1C(=O)NC(CO)CO	item: hypotension	human patients	oral, dose not given, grade 3		patients with related SAE	2.4%
O=C(CCC(C(=O)[O-])N1CCN(C(CCC(=O)NCC(O)CO)C(=O)[O-])Cc2cccc(n2)CN(C(CCC(=O)NCC(O)CO)C(=O)[O-])CC1)NCC(O)CO.[153Gd+3] (stereo not shown)		Beagle dog, urine	intravenous, 0.2 mmol Gd/kg, 168 h	baseline: dose	excreted radioactivity	93.9%
N=C(N)NCCC[C@@H]1NC(=O)[C@H](Cc2c[nH]c3ccccc23)NC(=O)[C@@H](CC2CCCCC2)NC(=O)[C@@H]2CCCN2C(=O)[C@@H](NC(=O)CCc2ccccc2)CCCNC1=O		C57BL/6J mouse, plasma brain	intraperitoneal, 1 mg/kg single dose		MRT(0-last)	39.6 min
CC(C)[C@H](NC(=O)CNC(=O)[C@H](CCC(N)=O)NC(=O)[C@H](C)N)C(=O)O	LC-MS/MS	human, male, plasma	intravenous, 20 mg/kg three times daily, day 3, first dose, 10 min infusion, geometric mean		volume of distribution	7 L/kg
Cc1cc2c(c(=O)o1)C=C1CCC(C(C)CNCc3ccc(O)cc3)CC1O2 (stereo not shown)	western blot, item: Triton X-100-soluble Aβ monomer	5xFAD mice, brain	ip, 25 mg/kg daily, six weeks		Aβ monomer level	decreased
NC[C@@H](C(=O)Nc1ccc(-c2cn[nH]c2)cc1)c1ccccc1		New Zealand White rabbits, plasma	topical, 0.1 % one drop, 2 h		peak plasma concentration	3 ng/mL
[2H]C([2H])([2H])NC(=O)c1ccc(N2C(=S)N(c3ccc(C#N)c(C(F)(F)F)c3)C(=O)C2(C)C)cc1F		healthy men	oral, 40 mg, 50 days, fasting, soft capsules		adverse events	4 occurrences
CC[C@H](C)[C@H](NC(=O)[C@H](Cc1ccccc1)NC(=O)[C@H](CCCN)NC(=O)[C@H](CCCNC(=N)N)NC(=O)[C@H](Cc1ccccc1)NC(=O)[C@H](Cc1ccccc1)NC(=O)[C@H](CCCCN)NC(=O)[C@H](CO)NC(=O)[C@H](CC(C)C)NC(=O)[C@H](CCCNC(=N)N)NC(=O)[C@H](CCSC)NC(=O)[C@H](C)N)C(=O)N[C@@H](CC(C)C)C(=O)N[C@@H](CCCCN)C(=O)N[C@@H](CCCNC(=N)N)C(=O)N[C@@H](CCCCN)C(=O)N[C@@H](CCCCN)C(=O)O	circular dichroism	20% TFE in PBS	200 µM, pH 7.4, 25 °C		helicity	14.4%
Oc1ccc2ccccc2c1/N=N/c1ccccc1		rat whole blood QC samples	16.0 µg/L, 12 h, room temperature, short-term stability		measured concentration	16.2 µg/L
CC(C)(Sc1ccncc1-c1ccc(C#N)c2ccccc12)C(=O)OC1OC(C(=O)O)C(O)C(O)C1O (stereo not shown)		adult men, plasma	oral, 15 mg verinurad, severe renal impairment	baseline: normal renal function	Cmax increase	253%
CNC(=O)c1ccc(N2CCN(Cc3ccc4nc(C)c(=O)[nH]c4c3F)CC2)c([18F])n1		human plasma	90 min		remaining intact tracer	> 95%
CN(C)c1cc(CN2CCCCC2)c(O)c2c1C[C@H]1C[C@H]3[C@H](N(C)C)C(O)=C(C(N)=O)C(=O)[C@@]3(O)C(O)=C1C2=O		cynomolgus monkey	oral, 5 mg/kg	baseline: tigecycline	oral plasma exposure	3 fold
CN(Cc1ccc(F)cc1)Cc1cc(=O)oc2cc(O)ccc12		HepG2 cell medium	0.5 mM, 180 min		remaining intact compound	> 99%
COc1ccc(S(=O)(=O)N2CCc3ccccc3C2)cc1N1CCN(C(=O)c2ccc(F)cc2C(F)(F)F)CC1		rat, brain	intravenous, 10 mg/kg, 3 h, single dose		concentration	5.6 ng/g
[11CH3]c1ccc2nc(C3CCC3)n(-c3ccc4[nH]ncc4c3)c2n1		standard human adult, thymus			absorbed radiation dose	2.6 µSv/MBq
Cn1c(=O)oc2ccc(-c3ccc(CC(C#N)NC(=O)C4CNCCCO4)c(F)c3)cc21 (stereo not shown)		human	oral, 20 mg once daily, TEAE, multiple ascending dose		lymphadenopathy incidence	22.2%

Repeated from above:
SMILES	assay	system	conditions	scale	measurement	value
NC(=O)N/N=C/c1ccccn1	cyclic voltammetry	anhydrous DMF	Cu2+ complex, glassy carbon electrode		peak potential separation	0.135 mV
COC(=O)c1ccc(CCc2cc3cc4nc(c(OC)c5[nH]c(cc6nc(cc2[nH]3)CC6(C)C)cc5CCCNC(=O)OC(C)(C)C)C(=O)C4(C)C)cc1		DMF	room temperature		integrated Qy/B absorption ratio	0.23
